Measurements from different studies.
“And” joins repeats or separate records; there may be more than shown.
MAPK1: Mitogen-activated protein kinase 1 (MAPK1, Homo sapiens, UniProt P28482)

Compound	target	test	system	conditions	scale	measurement	value
CCn1cc(C(=O)O)c(=O)c2c(N)c(F)c(NC3CCCCC3)cc21	MAPK1	kinase activity	–	0.1 µM, added: ATP at Km	–	inhibition	-15.2%
CC(C)=CC1OC(C)(C)C2C=C3C(=O)C(Cl)=CC(O)C3C3C(O)C4OC4C(=O)C132 (stereo not drawn)	MAPK1	cell-free assay, competition with immobilised ligand	–	10 µM	–	remaining binding	81%
CS(=O)(=O)Nc1cccc(-c2csc3cnc(Nc4ccc(N5CCN(CCCCCOc6cccc7c6C(=O)N(C6CCC(=O)NC6=O)C7=O)CC5)cc4)nc23)c1 (stereo not drawn)	MAPK1	probe labelling, inhibitor, KiNativ chemoproteomics	MOLT-4	1 µM	–	inhibition	-16.9%
COc1cc(Nc2nccc(-c3cnn4nc(OC)ccc34)n2)cc(C(F)(F)F)c1	MAPK1	binding, competition with immobilised ligand	–	1 µM	–	remaining binding	84%
C=CC(=O)N1CCc2ccc(-n3c(=O)ccc4cnc5ccc(-c6cnn(C)c6)cc5c43)cc21	MAPK1	KINOMEscan	–	1 µM	relative to: DMSO control	remaining binding	100%
C=CC(=O)Nc1cccc(-c2cnc3[nH]cc(C(=O)NC(C)(C)C)c3n2)c1	MAPK1	enzyme activity, inhibitor	–	0.1 µM	–	inhibition	2%
Nc1ncc2c(n1)-c1c([nH]c3ccc(C4=CCOCC4)cc13)CCC2	MAPK1	binding, competition with immobilised ligand	–	1 µM	–	remaining binding	94%
CNC1C[S+]2CC[S+]3CC[S+](C1)[Ru-4]321([N]=C=S)[n]2c3ccc(OC)cc3c3c4c(c5cc(F)c[n+]1c5c32)C(=O)NC4=O (stereo not drawn)	MAPK1	KinomeScan	–	0.1 µM	relative to: untreated	remaining binding	91%
C=C1CC2(C(=O)OC)C=C(C(=O)OC(C)(C)C)C(=O)C1C2 (stereo not drawn)	Mitogen-activated protein kinase 1, with MKK1 (MAPK1, Homo sapiens, UniProt P28482)	MKK1-ERK2 interaction, NanoBiT luminescence	HEK293T	concentration not given	relative to: untreated	relative protein interaction	0.732
O=C(Cc1ccc(OCc2ccccc2)cc1)NC1(C(=O)O)CCN(C(=O)c2ccc(-c3cccc(Cl)c3)cc2)CC1	MAPK1	enzyme activity, inhibitor	–	10 µM	–	activity vs control	97%
Cc1cccc(O[C@H]2CCC[C@@H](C(C)CNCc3ccncc3)C2)c1 (relative stereo)	MAPK1	enzyme activity, inhibitor	–	1 µM	–	inhibition	-1%
NC(=O)[C@@H](O)C[C@H]1CCc2sc3ncnc(O[C@H]4CC[C@H](N5CCOCC5)CC4)c3c21	MAPK1	enzyme activity, inhibitor	–	10 µM	–	inhibition	6%
Cc1cccc(-c2ccc3nc(NC(=O)C4CCOCC4)nn3c2)c1	MAPK1	enzyme activity, Dundee kinase panel	–	10 µM	–	remaining activity	90%
COc1c(Cl)cccc1Nc1c(-c2ccncc2C#C[C@@]2(C)CCCN2C(=O)/C=C/CN(C)C)[nH]c2c1C(=O)NCC2	MAPK1	binding, competition with immobilised ligand	–	3 µM	–	remaining binding	98%
Cc1ccc(C)c(-c2ccc3nc(NC(=O)C4CCCCC4)nn3c2)c1	MAPK1	enzyme activity, Dundee kinase panel	–	10 µM	–	remaining activity	86%
C#CCOC(=O)[C@@]1(C)C=C(C(=O)OC(C)(C)C)C(=O)CC1	MAPK1	enzyme activity, D-SENSOR	–	4.938 µM, single replicate	–	normalized kinase activity	1.01 and 1.13 and 0.998
CCN1CCN(Cc2ccc(C(=O)Nc3ccc(C)c(NCc4cnc5[nH]ccc5c4OC)c3)cc2C(F)(F)F)CC1	MAPK1	binding, competition with immobilised ligand	–	1 µM	–	remaining binding	100%
COC(=O)[C@@]1(C)C=C(C(=O)Nc2cccc(C(=O)Nc3ccc(Nc4nccc(-c5cccnc5)n4)c(C)c3)c2)C(=O)CC1	MAPK1	enzyme activity, inhibitor	–	4.938 µM, unit not given	relative to: vehicle	remaining activity	0.925 and 0.827 and 0.998
C=CC(=O)N1Cc2nc(-c3cc(-c4cc(Cl)cnc4Cl)c(F)cc3F)n(-c3ccncn3)c2C1	MAPK1	cell-free assay, inhibitor	–	1 µM	–	inhibition	7%
COc1cc(-n2cc3cc(F)cc(C(N)=O)c3n2)cc(Cl)c1C1CC(O)(CCO)Cc2ccccc21 (stereo not drawn)	MAPK1	enzyme activity, inhibitor	–	10 µM	–	inhibition	2.25%
CNC(=O)C[C@H](Cc1ccc(C#N)cc1)NC(=O)c1cc(-c2ccc(CN[C@H](C)c3ccc(C)cc3)o2)ccc1Cl	MAPK1	enzyme activity, inhibitor	–	1 µM	–	activity vs control	97%

Repeated from above:
Compound	target	test	system	conditions	scale	measurement	value
C=CC(=O)N1Cc2nc(-c3cc(-c4cc(Cl)cnc4Cl)c(F)cc3F)n(-c3ccncn3)c2C1	MAPK1	cell-free assay, inhibitor	–	1 µM	–	inhibition	7%
COc1cc(-n2cc3cc(F)cc(C(N)=O)c3n2)cc(Cl)c1C1CC(O)(CCO)Cc2ccccc21 (stereo not drawn)	MAPK1	enzyme activity, inhibitor	–	10 µM	–	inhibition	2.25%
CNC(=O)C[C@H](Cc1ccc(C#N)cc1)NC(=O)c1cc(-c2ccc(CN[C@H](C)c3ccc(C)cc3)o2)ccc1Cl	MAPK1	enzyme activity, inhibitor	–	1 µM	–	activity vs control	97%
